Literature values that unrelated publications cite.
Protocols differ between the studies behind these lines. ± marks the error that the study gave.

N#Cc1c(-c2ccco2)c(C#N)c(=O)n(-c2cccc(C(F)(F)F)c2)c1N
MIC (Candida albicans): 1.95 mg/L

Cc1cccc2nc3c(O)c(Br)c(Cl)c(Br)c3nc12
MIC (Staphylococcus aureus; MRSA): 0.08 µM

CC1=CCC23OC2(C)CCC2C(CN(C)C)C(=O)OC2C13.Cl (stereo not drawn)
tumour growth inhibition (sarcoma 37 tumour model; host not given; intraperitoneal and intratumoral, concentration not given): 86 to 90%

CCCC/C=C/C(=O)N[C@@H](Cc1cc(F)cc(F)c1)C(=O)OC
MIC (Bacillus subtilis): 8 mg/L

C/C=C1\NC(=O)[C@H](Cc2ccccc2)NC(=O)[C@H](C(C)C)NC(=O)[C@H](Cc2ccccc2)NC(=O)[C@H](CCC(N)=O)NC(=O)[C@H](Cc2c[nH]c3ccccc23)NC(=O)[C@H]2CSC[C@@H](C(=O)N[C@@H](CO)C(=O)O)NC(=O)[C@H](CSC[C@H]3NC(=O)[C@H]([C@@H](C)CC)NC(=O)[C@H](NC(=O)[C@H](Cc4c[nH]cn4)NC(=O)[C@@H](NC(=O)[C@@H](NC(=O)CNC(=O)[C@H](CO)NC(=O)CNC(=O)CNC(=O)[C@@H](N)CCCCN)C(C)C)[C@@H](C)CC)[C@H](C)SC[C@H](NC(=O)[C@H](CCC(=O)O)NC(=O)[C@H](Cc4c[nH]cn4)NC3=O)C(=O)N[C@@H](CC(N)=O)C(=O)N[C@@H](CCSC)C(=O)N[C@@H](CC(N)=O)C(=O)N2)NC1=O
MIC (Lactococcus lactis subsp. cremoris; HP): 1.56 µM

C[C@@H](Nc1c(-c2c(F)cc(OCCCO)cc2F)c(Cl)nc2ncnn12)C(C)(C)C
total α-tubulin level (HEK293; 10 µM, 4 h, unit not given; relative to: vehicle (DMSO)): 1.06 ± 0.03

CSCC[C@H](NC(=O)[C@H](CCCNC(=N)N)NC(=O)[C@H](Cc1c[nH]c2ccccc12)NC(=O)[C@H](CCC(N)=O)NC(=O)[C@H](Cc1c[nH]c2ccccc12)NC(=O)[C@H](CCCNC(=N)N)NC(=O)[C@H](CCCNC(=N)N)NC(=O)[C@H](C)NC(=O)[C@H](CCCCN)NC(=O)[C@@H](N)Cc1ccccc1)C(=O)N[C@@H](CCCCN)C(=O)N[C@@H](CCCCN)C(=O)N[C@@H](CC(C)C)C(=O)NCC(=O)N[C@@H](C)C(=O)NCCCC[C@H](NC(=O)[C@H](C)NC(=O)CNC(=O)[C@H](CC(C)C)NC(=O)[C@H](CCCCN)NC(=O)[C@H](CCCCN)NC(=O)[C@H](CCSC)NC(=O)[C@H](CCCNC(=N)N)NC(=O)[C@H](Cc1c[nH]c2ccccc12)NC(=O)[C@H](CCC(N)=O)NC(=O)[C@H](Cc1c[nH]c2ccccc12)NC(=O)[C@H](CCCNC(=N)N)NC(=O)[C@H](CCCNC(=N)N)NC(=O)[C@H](C)NC(=O)[C@H](CCCCN)NC(=O)[C@@H](N)Cc1ccccc1)C(=O)NCCCCCC(N)=O
MIC (Escherichia coli; broth microdilution; ATCC 25922): 24 µM

CC(=O)N1CCc2cc(S(=O)(=O)N3CCN(c4cc(Cl)cc(C(F)(F)F)c4)CC3)ccc21
MIC (Klebsiella pneumoniae; 10031): 1.6 mg/L

CCn1cc(C(=O)NCCNCCO)c(=O)c2cc(OCc3ccc(C(F)(F)F)cc3)c(Cl)cc21
MIC (Acinetobacter baumannii; growth; ATCC 19606): 32 mg/L

CN1C(=O)[C@@H](Cc2ccc(O)cc2)NC(=O)CNC(=O)[C@H](Cc2ccc3ccccc3c2)NC(=O)[C@H](CCCNC(=N)N)NC(=O)[C@H]1CCCNC(=O)c1ccc(CNC(=O)CN2CCN(CC(=O)O)CCN(CC(=O)O)CCN(CC(=O)O)CC2)cc1 [gallium-68 labelled]
absorbed dose coefficient (PET dosimetry; human patients, small intestine): 0.0123 mGy/MBq

CN1CCN(c2cc(-c3ccccc3CO)c(N(C)C(=O)C(C)(C)c3cc(C(F)(F)F)cc(C(F)(F)F)c3)cn2)CC1
half-life (healthy volunteers, plasma; oral, 450 mg, single dose, together with: palonosetron 0.75 mg): 78.8 h

N=C(N)NCCC[C@H](NC(=O)[C@H](Cc1c[nH]c2ccccc12)NC(=O)[C@H](CCC(N)=O)NC(=O)[C@H](Cc1c[nH]c2ccccc12)NC(=O)[C@H](CCCNC(=N)N)NC(=O)[C@@H](N)CCCNC(=N)N)C(=O)NCCCC[C@H](NC(=O)[C@H](CCCNC(=N)N)NC(=O)[C@H](Cc1c[nH]c2ccccc12)NC(=O)[C@H](CCC(N)=O)NC(=O)[C@H](Cc1c[nH]c2ccccc12)NC(=O)[C@H](CCCNC(=N)N)NC(=O)[C@@H](N)CCCNC(=N)N)C(=O)NCCCCCC(N)=O
MIC (Escherichia coli; broth microdilution; ATCC 11775): 22 µM

Cc1ccc(/N=N/c2c(C)c(C(=O)Nc3ccccc3)c(N)n(-c3ccccc3)c2=O)cc1
MIC (Bacillus subtilis): 0.98 mg/L

c1ccc(CSc2nc3ccccc3cc2CNCCC2CCN(C3CCCC3)CC2)cc1
MIC (Pseudomonas aeruginosa; multidrug-resistant): 16 to 64 mg/L

Cc1ccccc1-c1cc(N2CCNCC2)ncc1N(C)C(=O)C(C)(C)c1cc(C(F)(F)F)cc(C(F)(F)F)c1
half-life (healthy volunteers, plasma; oral, dose not given, netupitant-palonosetron, fed): 82.9 h

F[P-](F)(F)(F)(F)F.O=C(CCC(=O)[c-]1cccc1)NCCN(CC(=O)Nc1ccc(C#CCN(Cc2ccccn2)Cc2ccccn2)cc1)C(=O)CCc1cn(C[c-]2cccc2)nn1.[C-]#[O+].[C-]#[O+].[C-]#[O+].[C-]#[O+].[C-]#[O+].[C-]#[O+].[Mn+].[Re+].[Ru+2].c1cc[cH-]c1
MIC (Bacillus subtilis, Staphylococcus aureus; incl. MRSA): 4 to 32 mg/L

CSCC[C@H](NC(=O)[C@H](CCCNC(=N)N)NC(=O)[C@H](Cc1c[nH]c2ccccc12)NC(=O)[C@H](CCC(N)=O)NC(=O)[C@H](Cc1c[nH]c2ccccc12)NC(=O)[C@H](CCCNC(=N)N)NC(=O)[C@@H](N)CCCNC(=N)N)C(=O)N[C@@H](CCCCN)C(=O)N[C@@H](CCCCN)C(=O)N[C@@H](CC(C)C)C(=O)NCC(=O)NCCCC[C@H](NC(=O)CNC(=O)[C@H](CC(C)C)NC(=O)[C@H](CCCCN)NC(=O)[C@H](CCCCN)NC(=O)[C@H](CCSC)NC(=O)[C@H](CCCNC(=N)N)NC(=O)[C@H](Cc1c[nH]c2ccccc12)NC(=O)[C@H](CCC(N)=O)NC(=O)[C@H](Cc1c[nH]c2ccccc12)NC(=O)[C@H](CCCNC(=N)N)NC(=O)[C@@H](N)CCCNC(=N)N)C(=O)NCCCCCC(=O)N[C@@H](CSSC[C@H](NC(=O)CCCCCNC(=O)[C@H](CCCCNC(=O)CNC(=O)[C@H](CC(C)C)NC(=O)[C@H](CCCCN)NC(=O)[C@H](CCCCN)NC(=O)[C@H](CCSC)NC(=O)[C@H](CCCNC(=N)N)NC(=O)[C@H](Cc1c[nH]c2ccccc12)NC(=O)[C@H](CCC(N)=O)NC(=O)[C@H](Cc1c[nH]c2ccccc12)NC(=O)[C@H](CCCNC(=N)N)NC(=O)[C@@H](N)CCCNC(=N)N)NC(=O)CNC(=O)[C@H](CC(C)C)NC(=O)[C@H](CCCCN)NC(=O)[C@H](CCCCN)NC(=O)[C@H](CCSC)NC(=O)[C@H](CCCNC(=N)N)NC(=O)[C@H](Cc1c[nH]c2ccccc12)NC(=O)[C@H](CCC(N)=O)NC(=O)[C@H](Cc1c[nH]c2ccccc12)NC(=O)[C@H](CCCNC(=N)N)NC(=O)[C@@H](N)CCCNC(=N)N)C(N)=O)C(N)=O
MIC (Escherichia coli; broth microdilution; ATCC 11775): 15 µM

COCCOCCOCCOCCC(=O)NCc1cc(CNC(=O)CCOCCOCCOCCOC)cc(-c2cc3cc4nc(c(OC)c5[nH]c(cc6nc(cc2[nH]3)CC6(C)C)cc5-c2cc(CNC(=O)CCOCCOCCOCCOC)cc(CNC(=O)CCOCCOCCOCCOC)c2)CC4(C)C)c1
singlet excited-state lifetime (PBS; room temperature): 2.7 ns

For quick reference, copied from above:
CC1=CCC23OC2(C)CCC2C(CN(C)C)C(=O)OC2C13.Cl (stereo not drawn)
tumour growth inhibition (sarcoma 37 tumour model; host not given; intraperitoneal and intratumoral, concentration not given): 86 to 90%

CN1C(=O)[C@@H](Cc2ccc(O)cc2)NC(=O)CNC(=O)[C@H](Cc2ccc3ccccc3c2)NC(=O)[C@H](CCCNC(=N)N)NC(=O)[C@H]1CCCNC(=O)c1ccc(CNC(=O)CN2CCN(CC(=O)O)CCN(CC(=O)O)CCN(CC(=O)O)CC2)cc1 [gallium-68 labelled]
absorbed dose coefficient (PET dosimetry; human patients, small intestine): 0.0123 mGy/MBq
